Assay results collected from several papers.
Protocols differ between the studies behind these lines. ± marks the error that the study gave.
DRD4: D(4) dopamine receptor (DRD4, Homo sapiens, UniProt P21917)
Chain of UniProt P21917 (whole entry, looked up): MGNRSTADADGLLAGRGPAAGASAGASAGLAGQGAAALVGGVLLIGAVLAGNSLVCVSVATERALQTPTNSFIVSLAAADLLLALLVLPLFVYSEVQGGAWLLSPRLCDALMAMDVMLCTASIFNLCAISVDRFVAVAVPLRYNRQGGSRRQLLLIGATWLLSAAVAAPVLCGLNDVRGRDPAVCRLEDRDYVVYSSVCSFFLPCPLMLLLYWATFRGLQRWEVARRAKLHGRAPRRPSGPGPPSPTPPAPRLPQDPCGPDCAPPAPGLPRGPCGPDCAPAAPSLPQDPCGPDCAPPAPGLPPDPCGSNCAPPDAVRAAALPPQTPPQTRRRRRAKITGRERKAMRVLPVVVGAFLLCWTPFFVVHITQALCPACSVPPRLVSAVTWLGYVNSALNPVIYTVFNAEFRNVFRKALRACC
HRH2: Histamine H2 receptor (HRH2, Homo sapiens, UniProt P25021)
Chain of UniProt P25021 (whole entry, looked up): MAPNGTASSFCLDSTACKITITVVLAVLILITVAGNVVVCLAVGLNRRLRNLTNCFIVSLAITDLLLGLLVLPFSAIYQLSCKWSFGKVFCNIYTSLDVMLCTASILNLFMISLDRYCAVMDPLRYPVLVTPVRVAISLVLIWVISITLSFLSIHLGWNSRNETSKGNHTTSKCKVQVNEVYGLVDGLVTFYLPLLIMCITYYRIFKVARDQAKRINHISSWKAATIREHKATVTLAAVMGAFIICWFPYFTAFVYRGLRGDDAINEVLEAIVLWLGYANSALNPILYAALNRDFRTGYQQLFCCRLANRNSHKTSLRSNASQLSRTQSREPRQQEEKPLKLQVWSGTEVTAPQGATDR
Chain of UniProt P28221 (whole entry, looked up): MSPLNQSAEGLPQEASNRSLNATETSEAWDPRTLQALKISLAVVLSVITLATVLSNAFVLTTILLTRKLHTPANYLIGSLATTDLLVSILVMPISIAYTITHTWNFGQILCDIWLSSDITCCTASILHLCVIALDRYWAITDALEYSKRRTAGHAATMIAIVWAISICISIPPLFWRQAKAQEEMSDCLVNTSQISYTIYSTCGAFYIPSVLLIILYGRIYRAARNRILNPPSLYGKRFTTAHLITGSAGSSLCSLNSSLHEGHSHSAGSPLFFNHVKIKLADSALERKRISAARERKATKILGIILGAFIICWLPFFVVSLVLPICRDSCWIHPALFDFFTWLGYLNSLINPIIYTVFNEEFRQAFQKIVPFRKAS
Chain of UniProt P28335 (whole entry, looked up): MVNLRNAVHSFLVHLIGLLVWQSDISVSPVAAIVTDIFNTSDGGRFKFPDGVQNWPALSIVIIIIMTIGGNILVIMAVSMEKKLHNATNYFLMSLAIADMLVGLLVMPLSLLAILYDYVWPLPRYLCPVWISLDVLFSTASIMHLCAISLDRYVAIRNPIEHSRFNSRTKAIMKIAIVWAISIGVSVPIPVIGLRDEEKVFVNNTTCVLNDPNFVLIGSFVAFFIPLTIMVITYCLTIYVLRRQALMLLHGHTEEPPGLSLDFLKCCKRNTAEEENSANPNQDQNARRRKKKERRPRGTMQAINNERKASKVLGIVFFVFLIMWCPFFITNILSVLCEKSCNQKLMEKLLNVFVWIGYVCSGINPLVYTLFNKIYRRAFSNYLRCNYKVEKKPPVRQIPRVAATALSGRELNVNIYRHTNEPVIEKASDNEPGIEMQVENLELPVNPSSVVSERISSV
Chain of UniProt Q969R2 (whole entry, looked up): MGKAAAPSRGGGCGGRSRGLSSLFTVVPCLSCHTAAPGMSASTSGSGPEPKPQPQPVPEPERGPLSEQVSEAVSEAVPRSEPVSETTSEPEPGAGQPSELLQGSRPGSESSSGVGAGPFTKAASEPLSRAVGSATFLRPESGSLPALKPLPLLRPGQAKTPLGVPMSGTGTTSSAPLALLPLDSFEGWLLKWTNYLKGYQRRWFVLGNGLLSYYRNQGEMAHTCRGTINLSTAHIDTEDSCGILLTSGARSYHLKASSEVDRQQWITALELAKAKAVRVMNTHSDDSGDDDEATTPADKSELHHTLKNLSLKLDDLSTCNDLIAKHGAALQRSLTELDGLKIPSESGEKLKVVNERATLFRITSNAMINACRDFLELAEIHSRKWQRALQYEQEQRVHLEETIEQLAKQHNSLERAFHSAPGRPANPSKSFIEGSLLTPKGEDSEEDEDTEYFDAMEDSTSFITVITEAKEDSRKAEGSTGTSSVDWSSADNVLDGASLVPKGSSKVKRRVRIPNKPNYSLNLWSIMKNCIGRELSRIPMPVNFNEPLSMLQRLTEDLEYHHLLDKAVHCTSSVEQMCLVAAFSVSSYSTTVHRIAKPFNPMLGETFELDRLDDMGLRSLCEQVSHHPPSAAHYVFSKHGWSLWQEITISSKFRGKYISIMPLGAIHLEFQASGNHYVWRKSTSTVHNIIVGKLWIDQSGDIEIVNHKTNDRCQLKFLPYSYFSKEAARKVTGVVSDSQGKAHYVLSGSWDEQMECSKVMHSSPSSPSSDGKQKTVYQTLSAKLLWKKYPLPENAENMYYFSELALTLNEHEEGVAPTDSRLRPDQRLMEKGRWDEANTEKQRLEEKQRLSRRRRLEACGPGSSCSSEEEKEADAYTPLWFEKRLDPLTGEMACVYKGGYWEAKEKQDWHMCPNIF
Chain of UniProt Q9UHM6 (whole entry, looked up): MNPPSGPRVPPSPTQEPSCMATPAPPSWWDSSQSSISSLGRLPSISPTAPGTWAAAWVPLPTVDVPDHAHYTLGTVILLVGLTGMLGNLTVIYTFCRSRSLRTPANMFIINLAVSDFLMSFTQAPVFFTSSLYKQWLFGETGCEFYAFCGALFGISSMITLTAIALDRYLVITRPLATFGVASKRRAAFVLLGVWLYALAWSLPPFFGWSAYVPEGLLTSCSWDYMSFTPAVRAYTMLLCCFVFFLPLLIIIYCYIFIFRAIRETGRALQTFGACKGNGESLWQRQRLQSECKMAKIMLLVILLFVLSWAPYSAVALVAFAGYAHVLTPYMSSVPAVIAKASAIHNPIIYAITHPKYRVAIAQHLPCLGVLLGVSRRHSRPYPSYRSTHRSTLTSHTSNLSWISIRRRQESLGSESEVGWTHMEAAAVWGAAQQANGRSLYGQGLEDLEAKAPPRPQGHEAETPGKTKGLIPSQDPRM

Structure (SMILES)	target	effect on	mode	technique	matrix	setting	Ki
Cc1cccc(C)c1N1C(=O)[C@H](CC2CNc3ccccc32)NC2(CCN(C)CC2)C1=O (some centres unmarked)	DRD4	binding					> 10 µM
O[C@@H](CCCN1CCC(O)(c2ccc(Cl)cc2)CC1)c1ccc(F)cc1	DRD4						0.116 ± 0.0167 µM
N[C@@H](CS)C(=O)O	SclA protein (Enterococcus faecalis, UniProt Q831E3, H100K)						1240 ± 150 µM
Cc1cccc(C)c1N1C(=O)[C@H](CO)NC2(CCN(C)CC2)C1=O	HRH2	binding					> 10 µM
COc1ccc(N=Nc2ccc3[nH]cc(CCN(C)C)c3c2)cc1	5-hydroxytryptamine receptor 1D (HTR1D, Homo sapiens, UniProt P28221)	binding		radioligand binding		ambient light	0.00351 µM
C[C@@H]1CC[C@@]2(OC1)O[C@H]1C[C@H]3[C@@H]4CC=C5C[C@@H](O)CC[C@]5(C)[C@H]4CC[C@]3(C)[C@H]1[C@@H]2C	Oxysterol-binding protein 2 (OSBP2, Homo sapiens, UniProt Q969R2)	[3H]-25-hydroxycholesterol binding	competitive inhibitor				> 100 µM
COc1cc2c3c(c1OC)-c1c(cccc1OC)CC3N(C)CC2 (racemic)	5-hydroxytryptamine receptor 2C (HTR2C, Homo sapiens, UniProt P28335)			radioligand binding			2.13 µM
OC(c1ccc(F)cc1)C(F)(F)CCN1CCC(O)(c2ccc(Cl)cc2)CC1 (racemic)	DRD4						0.233 ± 0.025 µM
COc1ccc(S(=O)(=O)N2CCCCC2)cc1C	Melanopsin (OPN4, Homo sapiens, UniProt Q9UHM6)			radioligand binding	CHO-OPN4 cell membranes		0.013 µM
Cc1cccc(C)c1N1C(=O)CNC2(CCN(C)CC2)C1=O	HRH2	binding					> 10 µM
CN[C@@H]1Cc2cccc3[nH]c(=O)n(c23)C1	DRD4	binding					1.61 ± 0.297 µM

Some of these lines once more:
Structure (SMILES)	target	effect on	mode	technique	matrix	setting	Ki
CN[C@@H]1Cc2cccc3[nH]c(=O)n(c23)C1	DRD4	binding					1.61 ± 0.297 µM
N[C@@H](CS)C(=O)O	SclA protein (Enterococcus faecalis, UniProt Q831E3, H100K)						1240 ± 150 µM
